Assay results gathered from unrelated publications.
Compare with care: the assays were run in different laboratories. “And” joins repeats or separate records; there may be more than shown. ± gives the spread as reported.
Ugcg: Ceramide glucosyltransferase (Ugcg, Mus musculus, UniProt O88693)
Chain of UniProt P20813 (whole entry, looked up): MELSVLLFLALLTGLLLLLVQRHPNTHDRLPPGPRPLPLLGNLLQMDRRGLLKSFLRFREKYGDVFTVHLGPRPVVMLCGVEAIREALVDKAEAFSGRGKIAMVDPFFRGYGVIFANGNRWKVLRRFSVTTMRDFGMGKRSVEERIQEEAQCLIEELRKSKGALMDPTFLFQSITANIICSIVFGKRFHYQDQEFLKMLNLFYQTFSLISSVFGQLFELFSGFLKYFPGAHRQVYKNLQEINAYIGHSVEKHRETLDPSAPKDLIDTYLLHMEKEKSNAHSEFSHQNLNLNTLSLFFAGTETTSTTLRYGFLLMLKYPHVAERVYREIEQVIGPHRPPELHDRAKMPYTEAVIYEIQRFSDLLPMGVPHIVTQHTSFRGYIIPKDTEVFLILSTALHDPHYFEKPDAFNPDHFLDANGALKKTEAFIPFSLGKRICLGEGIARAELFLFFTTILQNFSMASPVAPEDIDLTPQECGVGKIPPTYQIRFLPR
Chain of UniProt O88693 (whole entry, looked up): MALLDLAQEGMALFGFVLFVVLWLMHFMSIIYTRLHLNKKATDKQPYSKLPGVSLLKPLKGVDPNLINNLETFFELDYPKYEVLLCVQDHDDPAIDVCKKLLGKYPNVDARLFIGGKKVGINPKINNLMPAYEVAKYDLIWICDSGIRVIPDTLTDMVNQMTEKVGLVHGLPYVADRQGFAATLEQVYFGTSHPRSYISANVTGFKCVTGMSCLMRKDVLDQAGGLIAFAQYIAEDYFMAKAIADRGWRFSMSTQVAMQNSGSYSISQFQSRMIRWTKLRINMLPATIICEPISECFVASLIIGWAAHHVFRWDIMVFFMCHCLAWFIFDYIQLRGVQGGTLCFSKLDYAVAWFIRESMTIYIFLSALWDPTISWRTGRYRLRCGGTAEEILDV
Chain of UniProt O15264 (whole entry, looked up): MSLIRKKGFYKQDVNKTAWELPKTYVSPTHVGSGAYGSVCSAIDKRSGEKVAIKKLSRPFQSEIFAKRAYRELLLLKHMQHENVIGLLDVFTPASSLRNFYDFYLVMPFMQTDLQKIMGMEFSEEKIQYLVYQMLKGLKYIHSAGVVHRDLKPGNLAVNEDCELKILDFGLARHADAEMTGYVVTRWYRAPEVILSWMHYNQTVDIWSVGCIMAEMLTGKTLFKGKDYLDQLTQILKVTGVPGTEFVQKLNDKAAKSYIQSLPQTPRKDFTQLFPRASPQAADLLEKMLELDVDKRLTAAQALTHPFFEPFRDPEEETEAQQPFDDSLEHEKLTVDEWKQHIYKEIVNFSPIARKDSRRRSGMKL
Chain of UniProt Q9UM73 (whole entry, unmodified, looked up): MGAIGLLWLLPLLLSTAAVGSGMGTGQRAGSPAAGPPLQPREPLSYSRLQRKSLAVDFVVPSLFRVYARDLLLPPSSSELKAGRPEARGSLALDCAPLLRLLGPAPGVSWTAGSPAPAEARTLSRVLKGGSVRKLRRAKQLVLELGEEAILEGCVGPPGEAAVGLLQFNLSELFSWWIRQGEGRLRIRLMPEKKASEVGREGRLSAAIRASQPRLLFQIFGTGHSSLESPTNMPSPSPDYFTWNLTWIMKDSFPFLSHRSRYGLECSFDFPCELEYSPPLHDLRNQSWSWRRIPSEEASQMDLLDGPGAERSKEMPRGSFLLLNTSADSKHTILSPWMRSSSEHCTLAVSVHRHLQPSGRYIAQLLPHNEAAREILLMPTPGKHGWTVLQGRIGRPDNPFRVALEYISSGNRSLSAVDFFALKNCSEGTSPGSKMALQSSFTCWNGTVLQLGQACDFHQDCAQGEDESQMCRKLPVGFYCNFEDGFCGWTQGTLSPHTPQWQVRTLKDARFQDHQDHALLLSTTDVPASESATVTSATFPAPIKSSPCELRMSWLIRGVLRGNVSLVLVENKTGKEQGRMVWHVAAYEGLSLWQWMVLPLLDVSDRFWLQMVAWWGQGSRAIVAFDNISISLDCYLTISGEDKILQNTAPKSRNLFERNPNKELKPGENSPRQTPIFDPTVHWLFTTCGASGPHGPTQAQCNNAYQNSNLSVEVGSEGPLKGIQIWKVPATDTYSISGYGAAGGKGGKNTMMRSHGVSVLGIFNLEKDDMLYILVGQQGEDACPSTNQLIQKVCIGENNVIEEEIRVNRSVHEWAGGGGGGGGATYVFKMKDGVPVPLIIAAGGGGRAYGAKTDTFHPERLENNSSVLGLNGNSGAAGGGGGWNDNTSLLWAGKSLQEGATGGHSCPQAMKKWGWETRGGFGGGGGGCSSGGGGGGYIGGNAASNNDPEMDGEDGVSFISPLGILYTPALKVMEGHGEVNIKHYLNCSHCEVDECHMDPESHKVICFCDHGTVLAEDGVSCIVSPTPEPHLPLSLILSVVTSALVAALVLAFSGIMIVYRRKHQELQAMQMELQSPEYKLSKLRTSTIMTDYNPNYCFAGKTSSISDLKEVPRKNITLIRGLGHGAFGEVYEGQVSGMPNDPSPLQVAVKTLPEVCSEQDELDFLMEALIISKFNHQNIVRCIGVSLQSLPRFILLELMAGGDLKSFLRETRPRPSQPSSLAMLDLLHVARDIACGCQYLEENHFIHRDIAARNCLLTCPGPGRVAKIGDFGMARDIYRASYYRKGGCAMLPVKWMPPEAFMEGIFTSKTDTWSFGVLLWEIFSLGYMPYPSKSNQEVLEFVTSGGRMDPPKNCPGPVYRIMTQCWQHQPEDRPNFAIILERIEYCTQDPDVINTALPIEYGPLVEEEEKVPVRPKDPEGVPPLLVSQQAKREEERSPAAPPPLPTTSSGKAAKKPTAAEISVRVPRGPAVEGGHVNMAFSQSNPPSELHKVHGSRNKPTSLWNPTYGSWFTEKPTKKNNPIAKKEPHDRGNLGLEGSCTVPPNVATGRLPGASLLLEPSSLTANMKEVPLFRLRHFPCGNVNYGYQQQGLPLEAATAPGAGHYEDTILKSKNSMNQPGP
Chain of UniProt P00761 (whole entry, looked up): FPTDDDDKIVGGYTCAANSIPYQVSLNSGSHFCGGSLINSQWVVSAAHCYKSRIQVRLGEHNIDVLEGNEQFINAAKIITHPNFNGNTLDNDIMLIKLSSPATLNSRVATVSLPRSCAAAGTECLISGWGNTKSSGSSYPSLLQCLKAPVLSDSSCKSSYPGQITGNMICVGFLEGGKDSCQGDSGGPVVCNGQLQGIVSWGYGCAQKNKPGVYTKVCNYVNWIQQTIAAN

`COC(=O)CC[C@@H](NC(=O)[C@@H](Cc1ccc(OP(=O)(O)O)cc1)NC(=O)[C@@H](Cc1ccccc1)NC(=O)[C@@H](Cc1ccccc1)NC(=O)Cc1ccc2ccccc2c1)C(=O)OC` has an ester hydrolysis of 20.4% (carboxylesterase; substrate; 200 µM, 3 h, pH 7.4, 37 °C, added: carboxylesterase 1 U/mL).
Under “revertant colony count”, `O=C1C2CC3CC1CC(C(=O)N1CCN(c4ccc([N+](=O)[O-])c5ncccc45)CC1)(C3)C2` is recorded as 1 colonies/well (Salmonella typhimurium; Ames test; TA1535; 0.02 µg/well, with S9 activation).
`CNC(=O)C1CCCN(C(=O)C2CC3CCC2N3C(=O)[C@@H]2C[C@@H](O)CN2C(=O)NCc2cccc(Cl)c2F)C1` (mixture of isomers) has a remaining activity of 97% and 99.7% and 107% (Cytochrome P450 2B6 (CYP2B6, Homo sapiens, UniProt P20813); preincubation without NADPH; human; 1.85 µM; relative to: negative control).
`C=C1CC[C@H](OCCCNC(=O)CCOCCOCCOCCOCCOCCOCCOCCOCCOCCOCCOCCOCCOCCOCCOCCOCCOCCOCCOCCOCCOCCOCCOCCOCCOCCOCCOCCOCCOCCOCCOCCOCCOCCOCCOCCOCCNC(=O)CCN2C(=O)CC(SC[C@H](NC(=O)[C@H](Cc3ccccc3)NC(=O)[C@H](CC(N)=O)NC(=O)[C@H](Cc3c[nH]cn3)NC(=O)[C@@H](NC(=O)[C@H](CC(=O)O)NC(=O)[C@H](CCC(N)=O)NC(=O)[C@H](CC(C)C)NC(=O)[C@H](CCCCN)NC(=O)[C@H](CCCCN)NC(=O)[C@H](CCCNC(=N)N)NC(=O)[C@H](CC(C)C)NC(=O)[C@H](Cc3c[nH]c4ccccc34)NC(=O)[C@H](CCC(=O)O)NC(=O)[C@@H](NC(=O)[C@H](CCCNC(=N)N)NC(=O)[C@H](CCC(=O)O)NC(=O)[C@H](CCSC)NC(=O)[C@H](CO)NC(=O)[C@H](CC(N)=O)NC(=O)[C@H](CC(C)C)NC(=O)[C@H](Cc3c[nH]cn3)NC(=O)[C@H](CCCCN)NC(=O)CNC(=O)[C@H](CC(C)C)NC(=O)[C@H](CC(N)=O)NC(=O)[C@H](Cc3c[nH]cn3)NC(=O)[C@H](CCSC)NC(=O)[C@H](CC(C)C)NC(=O)[C@H](CCC(N)=O)NC(=O)[C@@H](NC(=O)[C@H](CCC(=O)O)NC(=O)[C@H](CO)NC(=O)[C@@H](NC(=O)[C@@H](N)CO)C(C)C)[C@@H](C)CC)C(C)C)C(C)C)C(=O)O)C2=O)C/C1=C/C=C1\CCC[C@]2(C)[C@@H]([C@H](C)CCCC(C)(C)O)CC[C@@H]12` (stereo partly drawn) gave an MRT of 13.7 h (rat, plasma; subcutaneous, 100 µg/kg, single dose).
`COC(=O)Nc1nc2cc(C(O)c3ccc(F)cc3)ccc2[nH]1` (stereo not drawn) has a revertants of 18.3 revertants/plate (Salmonella typhimurium; Ames preincubation test; TA1535; 437.5 µg/plate, without S9).
With `O=C(CN1CCCCC1)Nc1ccc([C@H]2[C@@H](F)[C@@H](F)C[C@@H](F)[C@H]2F)cc1` the hepatic clearance was 49 mL/min/kg (cryopreserved mouse hepatocytes; 1 µM).
For `CCCC[C@H](NC(=O)CCCCCCCNC(=O)CN1CCN(CC(=O)O)CCN(CC(=O)O)CC1)C(=O)N[C@H]1CC(=O)NCCCC[C@@H](C(N)=O)NC(=O)[C@H](Cc2c[nH]c3ccccc23)NC(=O)[C@H](CCCNC(=N)N)NC(=O)[C@@H](Cc2ccccc2)NC(=O)[C@H](Cc2c[nH]cn2)NC1=O` [technetium-99m labelled], the tissue uptake was 29.7 ± 3.43 %ID (C57 mouse, intestine; intravenous, 0.037 MBq, 4 h).
`CC(C)Cc1ccc(C(C)C(=O)N[C@@H](CCCCNC(=O)CCOCCOCCOCCOCCOCCOCCNC(=O)CN2CCN(CC(=O)[O-])CCN(CC(=O)[O-])CCN(CC(=O)[O-])CC2)C(=O)Nc2cccc3c(C(=O)NCC(=O)N4CC(F)(F)C[C@H]4C#N)ccnc23)cc1.[177Lu+3]` (stereo partly drawn) has a tracer uptake of 2.66 %ID/g (U-87 MG tumour model; host not given, bone; 24 h, tumour-bearing).
`CCCC[C@H](NC(=O)COCCOCCNC(=O)CN1CCN(CC(=O)O)CCN(CC(=O)O)CC1)C(=O)N[C@H]1CC(=O)NCCCC[C@@H](C(N)=O)NC(=O)[C@H](Cc2c[nH]c3ccccc23)NC(=O)[C@H](CCCNC(=N)N)NC(=O)[C@@H](Cc2ccccc2)NC(=O)[C@H](Cc2c[nH]cn2)NC1=O` [technetium-99m labelled] gave a tissue uptake of 0.06 ± 0.02 %ID/g (C57 mouse, muscle; intravenous, 0.037 MBq, 24 h).
The tracer uptake of `N#C[C@@H]1CCCN1C(=O)CNC(=O)c1ccnc2ccc(OCCCN3CCN(C(=O)CCc4ccc5c(c4)CN4CCN6CC(=O)[O][68Ga-]([O]C(=O)C4)([O]5)[O]c4ccc(CCC(=O)N5CCN(CCCOc7ccc8nccc(C(=O)NCC(=O)N9CCC[C@H]9C#N)c8c7)CC5)cc4C6)CC3)cc12` is reported as 2.65 %ID/g (U-87 MG tumour model; host not given, blood; 1 h, tumour-bearing).
`CC(C)C[C@H](NC(=O)[C@@H](CCCCNC(=O)[C@@H](Cc1ccccc1)NC(=O)CCCCCNC(=O)CN1CCN(CC(=O)O)CCN(CC(=O)O)CCN(CC(=O)O)CC1)NC(=O)[C@H](Cc1ccc(O)cc1)NC(=O)[C@H](CO)NC(=O)[C@H](Cc1c[nH]c2ccccc12)NC(=O)[C@H](Cc1c[nH]cn1)NC(=O)[C@@H]1CCC(=O)N1)C(=O)N[C@@H](CCCNC(=N)N)C(=O)N1CCC[C@H]1C(=O)NCC(N)=O` [indium-111 labelled] has a tissue uptake of 5.33 ± 0.71 %ID/g (female athymic nude mice, kidneys; intravenous, 0.037 MBq, 4 h).
With `CN(C)c1cccc(-c2ccc([C@H]3[C@@H](F)[C@@H](F)C[C@@H](F)[C@H]3F)cc2)c1` the hepatic clearance was 35 mL/min/kg (hepatocyte stability; cryopreserved rat hepatocytes; 1 µM).
The IC50 of `CCn1nc(Cl)c2c1-c1cnc(N)c(c1)O[C@H](C)c1cc(F)ccc1-c1nn(C)cc1C2` is reported as 6.8 nM (ALK (Homo sapiens, UniProt Q9UM73, D1203N); enzyme activity, inhibitor; added: 1 mM ATP).
For `CCCCCCCCCCCCCCCC(=O)N[C@@H](CCC(=O)NCCCC[C@H](NC(=O)[C@H](CCC(N)=O)NC(=O)[C@H](Cc1c[nH]cn1)NC(=O)[C@@H](NC(=O)[C@H](CCCCN)NC(=O)[C@H](CC(=O)O)NC(=O)[C@H](CCSC)NC(=O)[C@H](C)NC(=O)[C@@H](NC(=O)[C@H](CO)NC(=O)[C@H](Cc1ccc(O)cc1)NC(=O)[C@H](CC(=O)O)NC(=O)[C@H](CO)NC(=O)[C@@H](NC(=O)[C@H](Cc1ccccc1)NC(=O)[C@@H](NC(=O)CNC(=O)[C@H](CCC(=O)O)NC(=O)[C@H](C)NC(=O)[C@H](Cc1ccc(O)cc1)NCC(F)(F)F)[C@@H](C)O)[C@@H](C)CC)[C@@H](C)CC)[C@@H](C)CC)C(=O)N[C@@H](CC(=O)O)C(=O)N[C@@H](Cc1ccccc1)C(=O)N[C@H](C(=O)N[C@@H](CC(N)=O)C(=O)N[C@@H](Cc1c[nH]c2ccccc12)C(=O)N[C@@H](CC(C)C)C(=O)N[C@@H](CC(C)C)C(=O)N[C@@H](C)C(=O)N[C@@H](CCC(N)=O)C(=O)N[C@@H](CCCCN)C(=O)NCC(=O)N[C@@H](CCCCN)C(=O)N[C@@H](CCCCN)C(=O)N[C@@H](CC(N)=O)C(=O)N[C@@H](CC(=O)O)C(=O)N[C@@H](Cc1c[nH]c2ccccc12)C(=O)N[C@@H](CCCCN)C(=O)N[C@@H](Cc1c[nH]cn1)C(=O)N[C@@H](CC(N)=O)C(=O)N[C@H](C(=O)N[C@H](C(=O)N[C@@H](CCC(N)=O)C(=O)O)[C@@H](C)O)[C@@H](C)CC)C(C)C)C(=O)O`, the fragment formed was 7% (Trypsin (Sus scrofa, UniProt P00761); LC-MS, item: fragment 1-30; 18 h, pH 8.0, 37 °C, added: trypsin 2.5 mg/mL).
`CNC(=O)c1ccc([C@H]2[C@@H](F)[C@@H](F)C[C@@H](F)[C@H]2F)cc1` gave a hepatic clearance of 12 mL/min/kg (liver microsome stability; dog liver microsomes; 1 µM).
For `CCCCCCCCOCCCCCN1C[C@H](O)[C@@H](O)[C@H](O)[C@H]1CO`, the IC50 was 200 nM (Ugcg; enzyme activity, inhibitor, fluorescence).
The revertants of `CCN(CC)CC#CCNc1ccnc2cc(Cl)ccc12` is reported as 1 revertants/well (Salmonella typhimurium; mini-Ames test; TA97a; 250.0 µg/well, with rat liver S9).
For `C=C(NC(=O)c1csc(-c2nc3c(cc2O)-c2nc(cs2)C(=O)NC(C(C)O)C(=O)NC(=C(C)OC)c2nc(cs2)C(=O)NC2c4nc(cs4)C(=O)NC(COC(=O)c4c5c6c(cccc6n4O)COC(=O)C(OC4CC(C)(O)C(N(C)C)C(C)O4)C2OC5)c2nc-3cs2)n1)C(N)=O` (stereo not drawn), the AUC(0-inf) was 5250 ng·h/mL (male Sprague-Dawley rats, plasma; intravenous infusion, 18 mg/kg).
With `Cc1nn(-c2cccc(N)c2)c(=O)c2cnc(Nc3ccc(N4CCNCC4)cc3)nc12` the IC50 was greater than 10000 nM (MAPK13 (Homo sapiens, UniProt O15264); SelectScreen kinase).
`O=C(c1ccc(C2CCCCC2)cc1)N1CCCC1` has a hepatic clearance of 18 mL/min/kg (hepatocyte stability; cryopreserved human hepatocytes; 1 µM).
For `CC(C)C[C@@H]1NC(=O)[C@H](CO)NC(=O)[C@H](CC(=O)O)NC(=O)[C@@H]2CCCN2C(=O)[C@H]2CCCN2C(=O)[C@H](C(C)C)NC(=O)[C@H](CC(=O)O)NC(=O)[C@H](CC(N)=O)NC(=O)[C@H](CCCNC(=N)N)NC(=O)[C@H]([C@@H](C)O)NC(=O)[C@H](C(C)C)NC(=O)CCNC(=O)CCNC(=O)[C@H](Cc2ccccc2)NC(=O)[C@H](C(C)C)NC(=O)[C@H](CC(C)C)NC1=O`, concentration read “not detected” (HEK-293T; subcellular fractionation LC-MS; cytoplasmic fraction; 20 µM, 2 h).
The tracer uptake of `N#C[C@@H]1CC(F)(F)CN1C(=O)CNC(=O)c1ccnc2c(NC(=O)[C@@H](N)CCCCNC(=O)CCOCCOCCOCCOCCOCCOCCNC(=O)CN3CCN(CC(=O)[O-])CCN(CC(=O)[O-])CCN(CC(=O)[O-])CC3)cccc12.[177Lu+3]` is reported as 0.16 %ID/g (U-87 MG tumour model; host not given, pancreas; 4 h, tumour-bearing).
The IC50 of `CC(C)=CCC/C(C)=C/CC/C(C)=C/COCCCCCN1C[C@H](O)[C@@H](O)[C@H](O)[C@@H]1CO` is reported as 2500 nM (Ugcg; enzyme activity, inhibitor, fluorescence).
`O=C(Nc1ccc([C@H]2[C@@H](F)[C@@H](F)C[C@@H](F)[C@H]2F)cc1)C1CC1(F)F` (stereo partly drawn) gave a hepatic clearance of 52 mL/min/kg (hepatocyte stability; cryopreserved mouse hepatocytes; 1 µM).

Repeated from above:
The revertants of `CCN(CC)CC#CCNc1ccnc2cc(Cl)ccc12` is reported as 1 revertants/well (Salmonella typhimurium; mini-Ames test; TA97a; 250.0 µg/well, with rat liver S9).
With `Cc1nn(-c2cccc(N)c2)c(=O)c2cnc(Nc3ccc(N4CCNCC4)cc3)nc12` the IC50 was greater than 10000 nM (MAPK13 (Homo sapiens, UniProt O15264); SelectScreen kinase).
